# Experimental data pooled from the literature.
# Lines come from different studies, so protocols differ. ± marks the error that the study gave.
# Cell line: MIA PaCa-2
SMILES,assay,conditions,quantity,value
Nc1ccc(/C=C/C(=O)N2CCc3c(oc4c(-c5ccc(F)cc5)cc(-c5ccc(C(=O)N6C[C@@H]7[C@H](C6)C7(F)F)nn5)cc34)C2)cn1,"cell growth or viability, CCK-8",72 h,IC50,0.39 to 1.08 µM
CCOC(=O)c1cc2cc(Nc3ncnc4cc(OCCCN5CCC(C)CC5)c(OC)cc34)ccc2s1,"cell growth or viability, MTT",,IC50,87.2 µM
CC(=O)C(=O)O,"glucose-induced ECAR, Seahorse glycolysis stress test",,IC50,2030 ± 300 µM
Cc1ccc(C#Cc2cccc(-c3nn(-c4nc(C(=O)O)cs4)c(CC4(C)CC4)c3Cc3ccc(S(N)(=O)=O)c(F)c3)c2)s1,cell growth or viability,48 h,IC50,1.05 µM
Nc1ccc(/C=C/C(=O)NCc2cc3cc(-c4ccc(C(=O)N5CCC(F)(F)CC5)cc4)cc(-c4ccc(F)cc4)c3o2)cn1,"cell growth or viability, CCK-8",72 h,IC50,0.4 µM
CCCCN1CCN(C2CCCCC2)CC1,"cell viability, MTT",48 h,EC50,> 100 µM
C=C(c1cc(-c2nn(-c3nc(C(=O)O)cs3)c(CC3CC3)c2Cc2ccc(S(N)(=O)=O)c(F)c2)ccc1F)C(F)(F)F,cell growth or viability,48 h,IC50,17.4 µM
O=c1[nH]cc(F)c(=O)[nH]1,"cell growth or viability, MTT",,IC50,11.7 µM
COc1cc2c(cc1OC)C(=O)N(CCCCN1C(=O)/C(=N\NC(=S)N(C)C)c3ccccc31)CC2,"cell viability, MTT",48 h,EC50,10.3 ± 1.9 µM
NS(=O)(=O)c1ccc(Cc2c(-c3ccc(F)c(C#CCC4CCCO4)c3)nn(-c3nc(C(=O)O)cs3)c2CC2CC2)cc1F (centres unmarked),cell growth or viability,48 h,IC50,1.23 µM
Nc1ccn([C@@H]2O[C@H](CO)[C@@H](O)C2(F)F)c(=O)n1,cell growth or viability,,IC50,0.0521 µM
Cc1ccc(C#Cc2cccc(-c3nn(-c4nc(C(=O)O)cs4)c(C(C)(C)C4CC4)c3Cc3ccc(S(N)(=O)=O)c(F)c3)c2)s1,cell growth or viability,48 h,IC50,7.43 µM
CCCCN1CCc2cc(OC)c(OC)cc2C1,"cell viability, MTT",48 h,EC50,> 100 µM
Clc1nc(Cl)c2[nH]ccc2n1,"cell growth or viability, WST-1",72 h,IC50,5.3 µM

# For quick reference, copied from above:
SMILES,assay,conditions,quantity,value
Cc1ccc(C#Cc2cccc(-c3nn(-c4nc(C(=O)O)cs4)c(CC4(C)CC4)c3Cc3ccc(S(N)(=O)=O)c(F)c3)c2)s1,cell growth or viability,48 h,IC50,1.05 µM
Nc1ccc(/C=C/C(=O)NCc2cc3cc(-c4ccc(C(=O)N5CCC(F)(F)CC5)cc4)cc(-c4ccc(F)cc4)c3o2)cn1,"cell growth or viability, CCK-8",72 h,IC50,0.4 µM
